Assay results collected from several papers.
Each numbered part is a random draw from the data of one study; scales do not carry over between parts.
Sequence of UniProt Q9NR20 (whole entry, looked up): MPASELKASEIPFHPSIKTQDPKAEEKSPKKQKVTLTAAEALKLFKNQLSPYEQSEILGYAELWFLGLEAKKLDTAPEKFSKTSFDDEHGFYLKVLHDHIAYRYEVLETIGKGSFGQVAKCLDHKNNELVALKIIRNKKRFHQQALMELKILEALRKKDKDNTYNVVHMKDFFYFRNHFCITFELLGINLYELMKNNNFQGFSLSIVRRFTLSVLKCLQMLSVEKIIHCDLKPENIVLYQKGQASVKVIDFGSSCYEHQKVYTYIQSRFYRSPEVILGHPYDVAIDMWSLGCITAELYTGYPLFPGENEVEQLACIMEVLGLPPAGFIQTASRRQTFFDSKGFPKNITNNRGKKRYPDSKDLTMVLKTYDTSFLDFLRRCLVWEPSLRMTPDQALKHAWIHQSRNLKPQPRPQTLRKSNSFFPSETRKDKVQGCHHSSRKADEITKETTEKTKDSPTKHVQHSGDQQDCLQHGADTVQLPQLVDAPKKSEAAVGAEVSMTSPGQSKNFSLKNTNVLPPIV

Set 1 — method: RNA Bind-n-Seq; form: RNA; sample: in vitro; tested at: 1 µM; setting: whole 134-nt RNA, ends assumed; with: 150 mM KCl; baseline: input library; direction: higher = stronger binding
Target: Ras GTPase-activating protein-binding protein 1, RRM domain (G3BP1, Homo sapiens, UniProt Q13283)
Sequence of UniProt Q13283 (whole entry, looked up): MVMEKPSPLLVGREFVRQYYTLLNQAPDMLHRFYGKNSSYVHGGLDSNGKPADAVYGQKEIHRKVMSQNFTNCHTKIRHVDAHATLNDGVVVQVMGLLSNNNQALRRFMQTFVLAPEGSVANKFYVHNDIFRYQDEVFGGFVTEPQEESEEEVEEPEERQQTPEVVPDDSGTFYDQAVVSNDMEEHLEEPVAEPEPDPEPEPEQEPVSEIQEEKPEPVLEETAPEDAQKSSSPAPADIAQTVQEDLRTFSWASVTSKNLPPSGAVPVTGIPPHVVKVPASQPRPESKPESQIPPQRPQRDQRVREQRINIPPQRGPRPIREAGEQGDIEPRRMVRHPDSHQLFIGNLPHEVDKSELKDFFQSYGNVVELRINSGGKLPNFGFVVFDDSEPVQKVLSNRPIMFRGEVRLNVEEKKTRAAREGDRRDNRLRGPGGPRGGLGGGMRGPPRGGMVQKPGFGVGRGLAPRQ
Strand	log2 enrichment
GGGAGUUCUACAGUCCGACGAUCCAAGUCCUGUGCUACACAUCGUAUGUACCGAAUCGGGAAAAAGGGUUUGGGUGGGAAAGUAUUAUGUUACGCCGUUCGGAUCUGCACUUCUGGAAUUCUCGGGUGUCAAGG	0.874
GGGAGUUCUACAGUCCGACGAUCAGCCGAGCGGGAACGGAACCGACAGCUGGAGCGAGAGAAACGUCGGGAGCACAGUCGGGAGAGGGACAGGGAGAGAGAGAGAGAAAGGGAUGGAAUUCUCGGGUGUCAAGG	-0.263
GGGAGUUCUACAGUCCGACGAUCCCUGUGCUACACAUCGUAUGUACCGAAUCGGGAAAAAGGGUUUUUUUGGGUUUUUUUGGGAAAGUAUUAUGUUACGCCGUUCGGAUCUGCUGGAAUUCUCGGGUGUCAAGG	-0.322
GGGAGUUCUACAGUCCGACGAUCUUUCUCCACAGGAGCCCCGCAAGUGAGCCAGCCACUGCGAGAGCAGAGUGAGGAUAUACCUGGAGCCAUUUCCUCUGCCCUGGCAGCCAUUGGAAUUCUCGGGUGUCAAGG	0.185
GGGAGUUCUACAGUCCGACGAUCCAAGUCCUGUGCUACACAUCGUAUGUACCGAAUCGGGUUUUUUUGGGUGGGUGGGAAAGUAUUAUGUUACGCCGUUCGGAUCUGCACUUCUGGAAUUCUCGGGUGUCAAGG	0.454
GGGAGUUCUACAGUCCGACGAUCAAGUCCUGUGCUACACAUCGUAUGUACCGAAUCGGAGGUUUUUUUGGUUUUUUUGGAAAGUAUUAUGUUACGCCGUUCGGAUCUGCACUUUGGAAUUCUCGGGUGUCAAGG	-0.404
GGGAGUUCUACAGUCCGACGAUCUCCCAGCCGAGGACGUCGGAUGUCAUCGUCCUUGCUGCUUUGCCACCCCAUUCCCGUCAAUAAAGUGGUUUGAACCCAACCCUGGUGUCGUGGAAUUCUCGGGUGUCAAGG	0.725
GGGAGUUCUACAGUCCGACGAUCCCCAUUCCAAGAUUUGCUGUUGGCAUUGUAAUAGGAAGAAAUGGAGAGAUGAUCAAAAAAAUACAAAAUGAUGCUGGUGUUCGCAUUCAGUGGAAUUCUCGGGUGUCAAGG	-0.191

Set 2 — method: protein-binding microarray; form: double-stranded DNA, one strand shown; sample: in vitro; tested at: 2200 nM top; setting: 60-bp whole probe; with: salmon DNA 0.4 mg/ml; baseline: random background probes; direction: higher = stronger binding; constant ends, left off below: GCCTAGCAC … GTCTTGATTCGCTTGACGCTGCTG
Target: Interferon regulatory factor 7, full length, phosphomimetic (IRF7, Homo sapiens, UniProt Q92985, residues 1-503, S471D/S472D/S475D/S476D/S477D/S483D/S484D/S487D)
Sequence of UniProt Q92985 (whole entry, unmodified, looked up): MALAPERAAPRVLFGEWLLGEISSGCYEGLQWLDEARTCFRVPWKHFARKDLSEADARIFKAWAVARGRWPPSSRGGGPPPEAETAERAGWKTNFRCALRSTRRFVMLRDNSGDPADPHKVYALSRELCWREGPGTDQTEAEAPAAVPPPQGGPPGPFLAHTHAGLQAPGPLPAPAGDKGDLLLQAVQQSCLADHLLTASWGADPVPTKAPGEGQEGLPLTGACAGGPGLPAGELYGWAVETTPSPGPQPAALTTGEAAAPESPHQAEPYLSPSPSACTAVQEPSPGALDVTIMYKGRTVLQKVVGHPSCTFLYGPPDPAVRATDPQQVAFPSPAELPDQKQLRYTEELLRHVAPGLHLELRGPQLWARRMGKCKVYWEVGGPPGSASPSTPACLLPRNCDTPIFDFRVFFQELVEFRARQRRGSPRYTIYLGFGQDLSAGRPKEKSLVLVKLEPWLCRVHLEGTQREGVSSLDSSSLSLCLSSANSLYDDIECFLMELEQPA
Strand	fitted relative affinity [z-score]
TCATGTCTGCCTTTCAAACTGTGCTAG	1.7
TTTGATATCGGGTATCGATTAGTGCTA	0.611
CAGTAGATGGCGCCTGAGAGGTGCTAG	-0.131
ACAGCAAGCAGGGCCAGCCCGTGCTAG	-0.677
TCTTTTTCCTAATTGAACCCGTGCTAG	2.14
ACCGATTTCCTTCACCCACTGTGCTAG	2.71
TCAAAAGTGTTTCTCAAACTGTGCTAG	-0.346
TTAGATACCGGGACTGGATTAGTGCTA	-0.463

Set 3 — method: protein-binding microarray; form: hairpin DNA; sample: in vitro; tested at: not given; baseline: not given; direction: higher = stronger binding
Target: Interferon regulatory factor 1, DNA-binding domain (IRF1, Homo sapiens, UniProt P10914, residues 1-114)
Setting: whole hairpin DNA, median over replicate spots
Residues (chain): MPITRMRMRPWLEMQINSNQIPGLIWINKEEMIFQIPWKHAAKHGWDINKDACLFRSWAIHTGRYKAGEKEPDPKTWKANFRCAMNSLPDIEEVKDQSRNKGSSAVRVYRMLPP
Strand	median fluorescence [a.u.]
GAGGCCCGAAAGTGATACGCCTCCTGGCGTATCACTTTCGGGCCTCACAC	524
GAGGCCCGATAGCGAAACGCCTCCTGGCGTTTCGCTATCGGGCCTCACAC	641
GAGGCCCGAAAGCGAACGGCCTCCTGGCCGTTCGCTTTCGGGCCTCACAC (5mC at 17)	533
GAGGCCCGAAAGCGCAACGCCTCCTGGCGTTGCGCTTTCGGGCCTCACAC (5mC at 15)	523
GAGGCCCGACGGCGAAACGCCTCCTGGCGTTTCGCCGTCGGGCCTCACAC (5mC at 36)	512
GAGGCCCGCGAGTGAAACGCCTCCTGGCGTTTCACTCGCGGGCCTCACAC (5mC at 9)	530
GAGGCCCCGAAGCGAAACGCCTCCTGGCGTTTCGCTTCGGGGCCTCACAC	581
GAGGCCCGAAAATGAAACGCCTCCTGGCGTTTCATTTTCGGGCCTCACAC	1130

Further values, each from its own experiment
SMILES	target	effect on	mode	tested at	baseline	endpoint	result
Ic1cccc(CSc2nnc(-c3ccncc3)o2)c1	Dual specificity tyrosine-phosphorylation-regulated kinase 4 (DYRK4, Homo sapiens, UniProt Q9NR20)	enzyme activity	inhibitor	0.5 µM	control	remaining activity	98.5%

For quick reference, copied from above (set 2):
Strand	fitted relative affinity [z-score]
TCATGTCTGCCTTTCAAACTGTGCTAG	1.7
TTTGATATCGGGTATCGATTAGTGCTA	0.611
CAGTAGATGGCGCCTGAGAGGTGCTAG	-0.131
ACAGCAAGCAGGGCCAGCCCGTGCTAG	-0.677
